Assay results collected from several papers.
Each line is one published result; not all experiments were run side by side.

SMILES	assay	test system	setting	quantity	result
COc1ccc([C@@H](O)c2cc(-c3ncnc4cc(N5CCOCC5)ccc34)c(F)cc2Cl)nn1	measured: Lymphopenia	locally advanced rectal cancer patients	dose not given, all dose groups, together with: capecitabine plus radiotherapy	patients with drug-related AE	21%
COc1cc(Nc2ncc3c(n2)-c2ccc(Cl)cc2C(c2c(F)cccc2OC)=NC3)ccc1C(=O)O	measured: Hypertension, grade 1	cancer patients, phase 1/2	oral, dose not given, together with: pembrolizumab	patients with adverse event	8%
CCOc1c([C@H](C)n2nc(C)c3c(N)ncnc32)cc(Cl)c(F)c1[C@@H]1CNC(=O)C1	measured: QRS > 110 ms	previously treated B-cell malignancy	oral, 20 mg once daily, baseline QRS ≤100 ms	patients with high heart rate	3.6%
NC(=O)N1c2ccccc2C=Cc2ccccc21	–	male patients	oral, dose not given, on-treatment adverse events	patients with feces hard	7%
Cc1cc(-c2nnc(N)nc2-c2ccc(F)cc2)cc(Cl)n1	measured: Myositis	IO-naive mCRPC patients, male	oral, dose not given, treatment-related, grade ≥3	patients with immune-mediated AE	0%
Cc1cc(NC2CCN(C(=O)OC3CCN(C(=O)/C=C/CN(C)C)C3)CC2)n2ncc(C(C)C)c2n1 (stereo not shown)	CTCAE v4.0, measured: Asthenia	patients with advanced solid tumours	oral, dose not given, TIW, grade 3 or higher	patients with TEAE	0%
CNC(=O)c1ccc(-c2cnc3ncc(Cc4ccc5ncccc5c4)n3n2)cc1F	measured: Vomiting	cancer patients	oral, 600 mg twice daily, all expansion cohorts, grade 3-4	patients with adverse event	3%
COc1cc2nccc(Oc3ccc(NC(=O)c4cc5c(n(-c6ccccc6)c4=O)CCCC5=O)nc3)c2cc1OC	–	patients with relapsed/refractory AML	oral, 6 mg once daily	TEAEs, drug-related, patients with	33.3%
CC(C)C[C@H](NC(=O)CNC(=O)c1cc(Cl)ccc1Cl)B(O)O	measured: Dyspnoea, all grades	newly diagnosed multiple myeloma patients	oral, dose not given, maintenance phase, new onset, cycle 17 or later	patients with adverse event	17%
O=C(Nc1nc2cccc(-c3ccc(CN4CCS(=O)(=O)CC4)cc3)n2n1)C1CC1	–	rheumatoid arthritis patients	oral, 150 mg once daily, 4 weeks, TEAE regardless of relatedness	patients with upper abdominal pain	0%
C=CC(=O)NC1CCN(c2ncc3ncnc(Nc4ccc(Oc5ccc6c(c5)ncn6C)c(C)c4)c3n2)CC1	–	male patients	oral, dose not given, on-treatment adverse events	patients with Diarrhea	0%
CNC(=O)c1cc(Oc2ccc(NC(=O)Nc3cc(C(C)(C)C)nn3-c3ccc4ncccc4c3)c(F)c2)ccn1	–	patients	oral, dose not given, cycles 1 and 2, High AUC subgroup	patients with visual abnormalities	22%
C[C@@H](Nc1cc(F)cc(F)c1)c1cc(C(=O)N(C)C)cc2c(=O)cc(N3CCOCC3)oc12	measured: Hydronephrosis	advanced solid tumour patients	oral, dose not given, dose expansion	patients discontinuing for AE	0%

Some of these lines once more:
SMILES	assay	test system	setting	quantity	result
CNC(=O)c1ccc(-c2cnc3ncc(Cc4ccc5ncccc5c4)n3n2)cc1F	measured: Vomiting	cancer patients	oral, 600 mg twice daily, all expansion cohorts, grade 3-4	patients with adverse event	3%
